Measurements collected from several papers.
Every numbered part comes from another study and shows a few of its results, in no order. “And” joins repeats or separate records; there may be more than shown.
Chain of UniProt P42336 (whole entry, unmodified, looked up): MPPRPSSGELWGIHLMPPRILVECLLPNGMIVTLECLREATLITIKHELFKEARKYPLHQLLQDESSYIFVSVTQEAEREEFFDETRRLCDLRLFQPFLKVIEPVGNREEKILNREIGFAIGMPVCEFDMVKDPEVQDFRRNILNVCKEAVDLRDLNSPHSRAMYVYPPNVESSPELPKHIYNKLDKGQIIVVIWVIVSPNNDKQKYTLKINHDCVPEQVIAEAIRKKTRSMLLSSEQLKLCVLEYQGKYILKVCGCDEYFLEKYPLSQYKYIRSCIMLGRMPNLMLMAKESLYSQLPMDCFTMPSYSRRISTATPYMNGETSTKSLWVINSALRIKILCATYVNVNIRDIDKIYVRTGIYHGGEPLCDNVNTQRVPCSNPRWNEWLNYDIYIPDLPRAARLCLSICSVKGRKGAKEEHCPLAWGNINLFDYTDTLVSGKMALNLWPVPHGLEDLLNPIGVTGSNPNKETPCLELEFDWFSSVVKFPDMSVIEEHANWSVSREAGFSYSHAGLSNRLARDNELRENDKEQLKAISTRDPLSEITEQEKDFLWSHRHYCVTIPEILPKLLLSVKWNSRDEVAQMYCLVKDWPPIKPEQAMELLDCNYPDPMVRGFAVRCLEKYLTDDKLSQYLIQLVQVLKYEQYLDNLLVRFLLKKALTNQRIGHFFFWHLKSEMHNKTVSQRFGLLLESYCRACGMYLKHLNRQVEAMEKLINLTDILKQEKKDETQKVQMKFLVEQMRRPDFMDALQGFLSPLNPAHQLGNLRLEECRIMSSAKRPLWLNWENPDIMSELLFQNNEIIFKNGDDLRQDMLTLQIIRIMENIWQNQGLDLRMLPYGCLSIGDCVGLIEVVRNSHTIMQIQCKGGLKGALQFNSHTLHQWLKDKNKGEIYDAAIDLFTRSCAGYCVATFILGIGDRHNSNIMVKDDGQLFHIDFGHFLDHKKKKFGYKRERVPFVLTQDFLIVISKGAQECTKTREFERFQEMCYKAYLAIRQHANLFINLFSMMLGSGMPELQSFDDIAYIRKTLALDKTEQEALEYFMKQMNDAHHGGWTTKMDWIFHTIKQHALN
Chain of UniProt P27361 (whole entry, looked up): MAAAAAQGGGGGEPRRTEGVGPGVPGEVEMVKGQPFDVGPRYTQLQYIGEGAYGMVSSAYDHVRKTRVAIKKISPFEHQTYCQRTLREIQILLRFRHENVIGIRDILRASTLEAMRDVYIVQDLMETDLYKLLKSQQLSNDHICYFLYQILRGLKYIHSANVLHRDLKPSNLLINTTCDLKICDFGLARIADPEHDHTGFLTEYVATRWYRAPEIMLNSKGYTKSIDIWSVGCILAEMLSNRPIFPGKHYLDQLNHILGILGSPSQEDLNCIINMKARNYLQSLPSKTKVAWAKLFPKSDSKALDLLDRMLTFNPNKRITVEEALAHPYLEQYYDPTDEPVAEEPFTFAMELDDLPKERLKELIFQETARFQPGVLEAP
Chain of UniProt O15197 (whole entry, looked up): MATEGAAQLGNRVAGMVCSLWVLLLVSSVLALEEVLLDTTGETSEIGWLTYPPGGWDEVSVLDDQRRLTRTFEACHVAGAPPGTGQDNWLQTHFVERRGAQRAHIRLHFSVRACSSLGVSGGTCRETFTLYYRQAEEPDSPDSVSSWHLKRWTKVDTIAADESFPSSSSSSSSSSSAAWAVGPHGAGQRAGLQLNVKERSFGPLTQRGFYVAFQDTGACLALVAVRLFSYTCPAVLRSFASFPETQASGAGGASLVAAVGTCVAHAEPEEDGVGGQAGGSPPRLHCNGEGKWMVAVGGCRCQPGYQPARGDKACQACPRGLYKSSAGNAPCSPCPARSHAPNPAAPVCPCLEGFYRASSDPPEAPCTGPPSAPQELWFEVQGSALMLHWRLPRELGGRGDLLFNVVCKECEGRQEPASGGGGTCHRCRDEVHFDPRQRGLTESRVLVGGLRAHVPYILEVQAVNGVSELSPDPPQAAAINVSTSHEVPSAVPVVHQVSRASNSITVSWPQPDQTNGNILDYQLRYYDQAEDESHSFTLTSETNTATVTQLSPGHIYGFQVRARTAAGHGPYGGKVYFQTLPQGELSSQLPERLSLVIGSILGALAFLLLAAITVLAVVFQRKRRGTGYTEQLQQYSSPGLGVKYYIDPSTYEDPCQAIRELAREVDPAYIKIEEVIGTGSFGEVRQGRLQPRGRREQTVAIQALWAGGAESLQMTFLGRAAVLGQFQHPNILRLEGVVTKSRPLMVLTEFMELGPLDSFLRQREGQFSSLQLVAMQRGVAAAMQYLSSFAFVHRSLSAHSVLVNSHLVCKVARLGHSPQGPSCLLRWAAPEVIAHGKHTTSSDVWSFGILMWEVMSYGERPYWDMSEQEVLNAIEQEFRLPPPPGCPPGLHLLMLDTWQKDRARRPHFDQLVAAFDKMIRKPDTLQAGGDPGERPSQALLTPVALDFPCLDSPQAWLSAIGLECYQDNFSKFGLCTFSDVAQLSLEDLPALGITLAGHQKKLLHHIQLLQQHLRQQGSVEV
Chain of UniProt Q9P0L2 (whole entry, looked up): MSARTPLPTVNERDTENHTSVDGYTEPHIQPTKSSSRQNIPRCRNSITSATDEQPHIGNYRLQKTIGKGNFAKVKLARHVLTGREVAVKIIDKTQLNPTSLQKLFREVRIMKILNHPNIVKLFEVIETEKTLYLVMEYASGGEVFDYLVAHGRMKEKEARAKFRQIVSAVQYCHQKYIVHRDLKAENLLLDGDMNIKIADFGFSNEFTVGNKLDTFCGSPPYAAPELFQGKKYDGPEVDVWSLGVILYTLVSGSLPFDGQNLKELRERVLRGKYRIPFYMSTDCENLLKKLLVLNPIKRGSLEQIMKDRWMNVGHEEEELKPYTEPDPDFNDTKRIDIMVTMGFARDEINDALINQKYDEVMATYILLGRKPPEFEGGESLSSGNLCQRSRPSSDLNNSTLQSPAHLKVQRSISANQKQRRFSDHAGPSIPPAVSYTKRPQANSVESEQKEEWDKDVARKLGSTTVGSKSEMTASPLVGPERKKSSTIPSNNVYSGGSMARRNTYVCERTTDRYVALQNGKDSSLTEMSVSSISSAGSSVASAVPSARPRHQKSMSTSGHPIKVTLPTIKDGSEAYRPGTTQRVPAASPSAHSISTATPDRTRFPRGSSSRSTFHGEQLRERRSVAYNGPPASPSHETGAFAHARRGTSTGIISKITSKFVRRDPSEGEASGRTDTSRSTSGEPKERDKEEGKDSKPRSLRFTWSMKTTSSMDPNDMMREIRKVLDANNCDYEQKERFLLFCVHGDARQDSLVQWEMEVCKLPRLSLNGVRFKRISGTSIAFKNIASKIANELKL

Study 1
Compound: C[C@@H]1CN(c2ccc(-c3cc(C(=O)NCCOCCOCCOCCOCCNC(=O)Cn4cc(-c5[nH]cc(C(=O)N[C@@H](CC(N)=O)c6ccc(F)c(Cl)c6)c5-c5ccc(Cl)cc5F)cn4)ccc3F)cc2NC(=O)c2c[nH]c(=O)cc2C(F)(F)F)C[C@H](C)N1C
Effect on: thermal unfolding
Method: differential scanning fluorimetry
Concentration: 5.5 µM
Reading: higher = more unfolded
WDR5: WD repeat-containing protein 5 (WDR5, Homo sapiens, UniProt P61964)
DCAF1: DDB1- and CUL4-associated factor 1 (DCAF1, Homo sapiens, UniProt Q9Y4B6)
Chain of UniProt Q9Y4B6 (whole entry, looked up): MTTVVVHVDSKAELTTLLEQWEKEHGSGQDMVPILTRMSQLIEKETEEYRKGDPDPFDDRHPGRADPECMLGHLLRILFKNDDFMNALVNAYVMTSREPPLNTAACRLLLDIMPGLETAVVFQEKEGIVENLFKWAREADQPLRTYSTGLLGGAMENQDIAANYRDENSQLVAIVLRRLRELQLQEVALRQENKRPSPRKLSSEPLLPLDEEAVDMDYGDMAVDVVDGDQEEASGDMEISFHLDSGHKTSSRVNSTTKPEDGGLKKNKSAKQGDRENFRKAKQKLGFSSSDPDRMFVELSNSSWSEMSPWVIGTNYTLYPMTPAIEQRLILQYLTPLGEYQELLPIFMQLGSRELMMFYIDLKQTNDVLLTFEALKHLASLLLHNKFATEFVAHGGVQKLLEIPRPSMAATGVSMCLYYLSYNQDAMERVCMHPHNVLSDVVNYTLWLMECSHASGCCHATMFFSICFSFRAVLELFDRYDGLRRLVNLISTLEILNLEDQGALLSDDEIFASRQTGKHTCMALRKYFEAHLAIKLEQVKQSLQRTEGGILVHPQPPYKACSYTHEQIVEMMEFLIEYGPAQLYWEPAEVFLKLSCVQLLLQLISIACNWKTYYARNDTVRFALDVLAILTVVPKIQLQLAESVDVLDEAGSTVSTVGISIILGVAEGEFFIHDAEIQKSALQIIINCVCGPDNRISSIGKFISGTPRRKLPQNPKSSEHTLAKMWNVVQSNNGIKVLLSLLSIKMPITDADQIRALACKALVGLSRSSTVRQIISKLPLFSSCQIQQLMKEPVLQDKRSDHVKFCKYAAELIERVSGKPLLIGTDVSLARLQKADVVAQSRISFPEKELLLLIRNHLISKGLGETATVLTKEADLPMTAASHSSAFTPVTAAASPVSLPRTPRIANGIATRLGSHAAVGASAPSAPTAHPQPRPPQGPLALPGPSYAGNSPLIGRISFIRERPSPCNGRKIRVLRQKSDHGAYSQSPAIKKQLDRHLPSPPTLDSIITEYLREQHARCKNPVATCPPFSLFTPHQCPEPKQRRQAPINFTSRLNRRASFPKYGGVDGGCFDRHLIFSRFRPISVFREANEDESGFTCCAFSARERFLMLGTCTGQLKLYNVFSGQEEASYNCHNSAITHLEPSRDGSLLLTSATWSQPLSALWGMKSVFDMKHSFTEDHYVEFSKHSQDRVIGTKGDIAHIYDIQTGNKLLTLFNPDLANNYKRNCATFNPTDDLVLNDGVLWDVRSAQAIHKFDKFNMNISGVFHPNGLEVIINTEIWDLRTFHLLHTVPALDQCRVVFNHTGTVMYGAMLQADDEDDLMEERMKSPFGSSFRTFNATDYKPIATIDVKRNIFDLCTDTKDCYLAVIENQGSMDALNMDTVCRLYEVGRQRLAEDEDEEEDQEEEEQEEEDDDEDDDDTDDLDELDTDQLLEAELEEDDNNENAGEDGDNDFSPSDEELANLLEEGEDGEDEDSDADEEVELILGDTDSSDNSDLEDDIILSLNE
WDR5; 36 °C — “SYPRO Orange fluorescence”: 14200 a.u.
For WDR5; 66.61 °C: “SYPRO Orange fluorescence” read 7140 a.u.
For WDR5; 45.6 °C: “SYPRO Orange fluorescence” read 14300 a.u.
DCAF1; 25.4 °C — “SYPRO Orange fluorescence”: 7480 a.u.
It gave 38100 a.u. for “SYPRO Orange fluorescence” (WDR5; 94.81 °C).
For WDR5; 34.2 °C: “SYPRO Orange fluorescence” read 14400 a.u.
It gave 8060 a.u. for “SYPRO Orange fluorescence” (WDR5; 64.21 °C).
For DCAF1; 64.61 °C: “SYPRO Orange fluorescence” read 55300 a.u.
It gave 9940 a.u. for “SYPRO Orange fluorescence” (WDR5; 60.81 °C).
The “SYPRO Orange fluorescence” was 43600 a.u. (WDR5; 88.21 °C).
WDR5; 78.61 °C — “SYPRO Orange fluorescence”: 19000 a.u.

Study 2
Compound: C=CC(=O)N1CCN(c2nc(OC[C@@H]3CCCN3C)nc3c2CCN(c2cccc4cccc(C)c24)C3)C[C@@H]1CC#N
Effect on: binding
Action: competitor
Method: NanoBRET
Cell line: HEK293
KRAS Q61R: GTPase KRas (KRAS, Homo sapiens, UniProt P01116, Q61R)
HRAS: GTPase HRas (HRAS, Homo sapiens, UniProt P01112)
KRAS G12D: GTPase KRas (KRAS, Homo sapiens, UniProt P01116, G12D)
KRAS Q61R; 247 nM — normalized BRET: 81.6% and 103% and 98.2%.
For HRAS; 20 µM: normalized BRET read 184% and 112%.
For GTPase KRas (KRAS, Homo sapiens, UniProt P01116, Q61L); 9.14 nM: normalized BRET read 91.8% and 93.8% and 93.5%.
The normalized BRET was 104% (KRAS G12D; 38.1 pM).
For GTPase KRas (KRAS, Homo sapiens, UniProt P01116, Q61H); 82.2 nM: normalized BRET read 93.8% and 81.3% and 85.1%.
It gave 207% and 178% and 125% for normalized BRET (KRAS Q61R; 20 µM).
HRAS; 741 nM — normalized BRET: 104% and 91.1%.
For KRAS G12D; 156 nM: normalized BRET read 108%.
For GTPase KRas (KRAS, Homo sapiens, UniProt P01116, G13D); 82.2 nM: normalized BRET read 88.9% and 86.2% and 94.8%.
For KRAS G12D; 82.2 nM: normalized BRET read 93.8% and 92.1%.

Study 3
Structure (SMILES): O=C(Nc1ccccc1)Nc1cccc(Oc2ccc3nccn3n2)c1
Concentration: 1 µM
For NUAK family SNF1-like kinase 2 (NUAK2, Homo sapiens, UniProt Q9H093); binding: remaining binding read 100%.
Serine/threonine-protein kinase pim-3 (PIM3, Homo sapiens, UniProt Q86V86); binding — remaining binding: 100%.
It gave 65% for remaining binding (Mitogen-activated protein kinase kinase kinase 20 (MAP3K20, Homo sapiens, UniProt Q9NYL2); binding, competition with immobilised ligand).
Hepatocyte growth factor receptor (MET, Homo sapiens, UniProt P08581); binding — remaining binding: 100%.
Ribosomal protein S6 kinase alpha-1, C-terminal kinase domain (RPS6KA1, Homo sapiens, UniProt Q15418); binding, competition with immobilised ligand — remaining binding: 100%.
The remaining binding was 100% (Cyclin-dependent kinase 2 (CDK2, Homo sapiens, UniProt P24941); binding, competition with immobilised ligand).
The remaining binding was 100% (Phosphatidylinositol 4,5-bisphosphate 3-kinase catalytic subunit alpha isoform (PIK3CA, Homo sapiens, UniProt P42336, C420R); binding).
Mitogen-activated protein kinase kinase kinase 14 (MAP3K14, Homo sapiens, UniProt Q99558); binding — remaining binding: 93%.
The remaining binding was 89% (Serine/threonine-protein kinase 35 (STK35, Homo sapiens, UniProt Q8TDR2); cell-free binding).
Mast/stem cell growth factor receptor Kit (KIT, Homo sapiens, UniProt P10721, L576P); binding — remaining binding: 0%.
Calcium/calmodulin-dependent protein kinase type II subunit delta (CAMK2D, Homo sapiens, UniProt Q13557); binding — remaining binding: 100%.
For Protein kinase C theta type (PRKCQ, Homo sapiens, UniProt Q04759); binding: remaining binding read 90%.
The remaining binding was 98% (Serine/threonine-protein kinase MARK1 (MARK1, Homo sapiens, UniProt Q9P0L2); binding).
For Macrophage colony-stimulating factor 1 receptor, autoinhibited (CSF1R, Homo sapiens, UniProt P07333); binding, competition with immobilised ligand: remaining binding read 100%.
For Dual specificity tyrosine-phosphorylation-regulated kinase 1A (DYRK1A, Homo sapiens, UniProt Q13627); binding: remaining binding read 100%.
The remaining binding was 100% (Phosphatidylinositol 4,5-bisphosphate 3-kinase catalytic subunit alpha isoform (PIK3CA, Homo sapiens, UniProt P42336, H1047L); binding).
For Mitogen-activated protein kinase 3 (MAPK3, Homo sapiens, UniProt P27361); binding: remaining binding read 100%.
For Myosin light chain kinase (MYLK3, Homo sapiens, UniProt Q32MK0); binding, competition with immobilised ligand: remaining binding read 93%.
Serine/threonine-protein kinase PAK 5 (PAK5, Homo sapiens, UniProt Q9P286); binding — remaining binding: 71%.
For Phosphatidylinositol 4,5-bisphosphate 3-kinase catalytic subunit alpha isoform (PIK3CA, Homo sapiens, UniProt P42336, Q546K); binding: remaining binding read 100%.
It gave 100% for remaining binding (Phosphatidylinositol 4,5-bisphosphate 3-kinase catalytic subunit alpha isoform (PIK3CA, Homo sapiens, UniProt P42336); binding).
It gave 91% for remaining binding (Ephrin type-B receptor 6 (EPHB6, Homo sapiens, UniProt O15197); binding, competition with immobilised ligand).

Study 4
SMILES: Cc1c(F)cc2[nH]ncc2c1-c1c(C2CC2)cc2c(N3C[C@@H]4C[C@H]3CN4)nc(OC3CCOCC3)nc2c1OCc1ccccc1
Effect on: KRAS-RAF interaction
Action: inhibitor
Method: TR-FRET
With: SOS-mediated nucleotide exchange
KRAS with RAF: GTPase KRas, with RAF (KRAS, Homo sapiens, UniProt P01116)
KRAS G12D with RAF: GTPase KRas, with RAF (KRAS, Homo sapiens, UniProt P01116, G12D)
It gave -4.11% and -0.631% for inhibition (KRAS with RAF; 1 µM).
KRAS with RAF; 300 nM — inhibition: 6.5% and -3.91%.
It gave 2.06% and 0.012% for inhibition (KRAS with RAF; 3 µM).
It gave -4.57% and -5% for inhibition (KRAS with RAF; 10 nM).
KRAS G12D with RAF; 100 nM — inhibition: -2.99% and -4.64%.
KRAS G12D with RAF; 30 nM — inhibition: -1.28% and -2.58%.
It gave 80.4% and 88.1% for inhibition (KRAS G12D with RAF; 10 µM).

Study 5
Cell line: HCC1569
Method: in-cell western
Measured: CDK1 phospho-Thr14
Concentration: 123.46 nM
Cc1ncc(-c2cc3c(C(N)=O)c(-c4c(C)ccc(O)c4C)cnc3[nH]2)cn1 — result for “pCDK1 (Thr14) level”: 6.27 RLU and 12.4 RLU.
Cc1ccc(O)c(C)c1-c1cnc2[nH]c(-c3cnc(N4CCC(CCN5CCN(c6ccc(NC7CCC(=O)NC7=O)cc6F)CC5)CC4)nc3)cc2c1C#N (stereo not drawn): “pCDK1 (Thr14) level” 93.9 RLU and 101 RLU.
Cc1ccc(O)c(C)c1-c1cnc2[nH]c(-c3cnc(N4CCC5(CC4)CC(CN4CCN(c6ccc(NC7CCC(=O)NC7=O)cc6F)CC4)C5)nc3)cc2c1C#N (stereo not drawn) — result for “pCDK1 (Thr14) level”: 58.6 RLU and 45.9 RLU.
Under “pCDK1 (Thr14) level”, Cc1ccc(O)c(C)c1-c1cnc2[nH]c(-c3cnc(N4CCC(CCN5CCN(c6ccc(N7CCC(=O)NC7=O)cc6F)CC5)CC4)nc3)cc2c1C#N is recorded as 48.9 RLU and 36.2 RLU.
Under “pCDK1 (Thr14) level”, Cc1ccc(O)c(C)c1-c1cnc2[nH]c(-c3cnc(N4CCC(CN5CCN(c6ccc7c(c6)CN(C6CCC(=O)NC6=O)C7=O)CC5)CC4)nc3)cc2c1C#N (stereo not drawn) is recorded as 85.3 RLU and 70.2 RLU.
Cc1ncc(-c2cc3c(C(F)(F)F)c(-c4c(C)ccc(O)c4C)cnc3[nH]2)cn1: “pCDK1 (Thr14) level” 16.6 RLU and 29.4 RLU.
Under “pCDK1 (Thr14) level”, Cc1ccc(O)c(C)c1-c1cnc2[nH]c(-c3cnc(N)nc3)cc2c1C#N is recorded as 44.1% and 51.2%.
Cc1ncc(-c2cc3c(Cl)c(-c4c(C)ccc(O)c4C)cnc3[nH]2)cn1 — result for “pCDK1 (Thr14) level”: 12.3 RLU and 21.9 RLU.

Study 6
SMILES: CCN1/C(=C/C=C2\CCCC(/C=C/C3=[N+](CC)c4ccccc4C3(C)C)=C2NCCCCCCCCN2CCC(Nc3nc4ccccc4n3Cc3ccc(F)cc3)CC2)C(C)(C)c2ccccc21
Cell line: U-87 MG
Concentration: concentration not given
Reference: DMSO
It gave -4.01 for “log2 fold change” (measured: HTR2A mRNA).
The “log2 fold change” was 1.41 (measured: ARG2 mRNA).
The “log2 fold change” was -2.97 (measured: FGF1 mRNA).
For measured: TRIM59 mRNA: “log2 fold change” read -1.05.
For measured: ANKRD1 mRNA: “log2 fold change” read 2.71.
The “log2 fold change” was -0.938 (measured: GATA3 mRNA).
For measured: FAM180A mRNA: “log2 fold change” read -1.98.
The “log2 fold change” was -2.33 (measured: ID1 mRNA).
The “log2 fold change” was 1.56 (measured: NIPAL4 mRNA).
It gave -1.39 for “log2 fold change” (measured: RASD2 mRNA).
It gave -1.55 for “log2 fold change” (measured: PPP2R2B mRNA).
The “log2 fold change” was 1.09 (measured: WTAP mRNA).

Study 7
Structure (SMILES): O=C(O)C1(O)Oc2cc(Br)ccc2N(Cc2ccccc2)C1=O (stereo not drawn)
Organism: Arabidopsis thaliana
Strain: Col-0
3.125 µg/mL, seed germination, single repetition — hypocotyl length: 2.15 cm and 2.14 cm and 2.1 cm and 2.09 cm.
For 25 µg/mL, seed germination, repetition mean: hypocotyl length read 1.71 cm.
For 3.125 µg/mL, seed germination, repetition mean: hypocotyl length read 2.11 cm.
The hypocotyl length was 0.81 cm and 0.85 cm and 0.77 cm and 0.9 cm and 0.83 cm (100 µg/mL, seed germination, single repetition).
For 6.25 µg/mL, seed germination, repetition mean: hypocotyl length read 2.03 cm.
It gave 0.824 cm for hypocotyl length (100 µg/mL, seed germination, repetition mean).
The hypocotyl length was 2.05 cm and 2.06 cm and 2.04 cm and 2 cm (6.25 µg/mL, seed germination, single repetition).
It gave 1.35 cm for hypocotyl length (50 µg/mL, seed germination, repetition mean).
12.5 µg/mL, seed germination, repetition mean — hypocotyl length: 1.93 cm.

Mixed results
Method: DNA microarray
Measured: KIF20A
Under “log2 fold change”, COCC1CC2C(CCC3C(O)CCC32)c2ccc(O)cc21 (stereo not drawn) is recorded as 0.68 and 0.558 and 0.568 and 0.613 and 0.579 (PANC-1; 25 µM; reference: untreated cells).
The expression ratio of COCC1CC2C(CCC3(C)C(O)CCC23)c2ccc(O)cc21 (stereo not drawn) is reported as 0.845 and 0.925 and 0.97 and 0.966 and 0.883 (SK-OV-3; concentration not given; reference: untreated control).
